Experimental data of several laboratories.
Parts stem from different laboratories: compare values within a part only.
Sequence of UniProt P48736 (whole entry, looked up): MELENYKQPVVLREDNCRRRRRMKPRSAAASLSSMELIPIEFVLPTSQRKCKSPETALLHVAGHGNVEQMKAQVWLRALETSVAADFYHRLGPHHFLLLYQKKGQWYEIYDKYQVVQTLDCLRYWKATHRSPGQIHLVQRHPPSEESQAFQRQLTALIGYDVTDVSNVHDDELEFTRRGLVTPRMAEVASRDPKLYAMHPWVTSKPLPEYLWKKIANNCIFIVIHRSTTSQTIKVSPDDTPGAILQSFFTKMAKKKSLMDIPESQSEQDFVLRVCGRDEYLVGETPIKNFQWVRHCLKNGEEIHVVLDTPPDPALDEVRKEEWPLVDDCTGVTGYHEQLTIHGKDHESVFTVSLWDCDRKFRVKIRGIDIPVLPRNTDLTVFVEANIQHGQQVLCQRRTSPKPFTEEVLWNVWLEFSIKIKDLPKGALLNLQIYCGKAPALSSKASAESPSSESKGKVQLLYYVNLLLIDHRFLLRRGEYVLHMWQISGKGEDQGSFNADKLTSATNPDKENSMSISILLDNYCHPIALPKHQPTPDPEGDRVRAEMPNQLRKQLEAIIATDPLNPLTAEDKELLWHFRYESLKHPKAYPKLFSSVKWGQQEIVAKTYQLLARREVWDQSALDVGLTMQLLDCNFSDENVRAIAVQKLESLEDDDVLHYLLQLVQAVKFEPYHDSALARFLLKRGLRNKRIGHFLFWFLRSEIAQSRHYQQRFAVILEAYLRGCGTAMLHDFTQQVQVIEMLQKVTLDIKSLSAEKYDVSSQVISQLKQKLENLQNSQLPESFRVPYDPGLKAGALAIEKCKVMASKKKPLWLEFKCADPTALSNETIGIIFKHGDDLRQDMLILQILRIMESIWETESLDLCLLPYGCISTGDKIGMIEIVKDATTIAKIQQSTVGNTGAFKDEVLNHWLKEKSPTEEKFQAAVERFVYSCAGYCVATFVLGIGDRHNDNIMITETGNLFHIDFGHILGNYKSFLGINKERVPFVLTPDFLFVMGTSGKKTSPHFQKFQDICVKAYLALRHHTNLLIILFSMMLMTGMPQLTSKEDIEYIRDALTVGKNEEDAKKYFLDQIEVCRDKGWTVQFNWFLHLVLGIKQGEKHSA
Sequence of UniProt Q13164 (whole entry, looked up): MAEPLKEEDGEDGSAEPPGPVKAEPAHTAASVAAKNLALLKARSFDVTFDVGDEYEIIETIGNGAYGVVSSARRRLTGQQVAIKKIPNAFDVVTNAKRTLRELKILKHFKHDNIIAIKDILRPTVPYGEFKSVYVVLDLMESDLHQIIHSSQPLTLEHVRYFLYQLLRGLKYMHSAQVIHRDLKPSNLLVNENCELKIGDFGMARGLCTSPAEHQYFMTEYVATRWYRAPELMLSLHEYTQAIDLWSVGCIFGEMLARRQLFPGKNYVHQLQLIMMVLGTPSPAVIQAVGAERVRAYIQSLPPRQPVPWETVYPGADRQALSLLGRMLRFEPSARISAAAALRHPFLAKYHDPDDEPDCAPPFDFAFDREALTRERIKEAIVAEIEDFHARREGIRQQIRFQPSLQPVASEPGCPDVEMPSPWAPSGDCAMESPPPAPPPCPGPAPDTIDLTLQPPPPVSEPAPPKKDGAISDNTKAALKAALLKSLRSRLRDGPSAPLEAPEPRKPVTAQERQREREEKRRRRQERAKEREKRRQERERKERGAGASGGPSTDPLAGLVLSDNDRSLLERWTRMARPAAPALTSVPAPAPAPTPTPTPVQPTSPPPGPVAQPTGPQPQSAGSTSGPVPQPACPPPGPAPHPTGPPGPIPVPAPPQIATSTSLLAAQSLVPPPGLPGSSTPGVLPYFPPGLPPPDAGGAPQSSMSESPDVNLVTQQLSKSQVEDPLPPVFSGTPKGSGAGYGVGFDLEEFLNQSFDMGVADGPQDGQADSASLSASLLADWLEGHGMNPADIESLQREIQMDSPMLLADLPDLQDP
Sequence of UniProt Q16816 (whole entry, looked up): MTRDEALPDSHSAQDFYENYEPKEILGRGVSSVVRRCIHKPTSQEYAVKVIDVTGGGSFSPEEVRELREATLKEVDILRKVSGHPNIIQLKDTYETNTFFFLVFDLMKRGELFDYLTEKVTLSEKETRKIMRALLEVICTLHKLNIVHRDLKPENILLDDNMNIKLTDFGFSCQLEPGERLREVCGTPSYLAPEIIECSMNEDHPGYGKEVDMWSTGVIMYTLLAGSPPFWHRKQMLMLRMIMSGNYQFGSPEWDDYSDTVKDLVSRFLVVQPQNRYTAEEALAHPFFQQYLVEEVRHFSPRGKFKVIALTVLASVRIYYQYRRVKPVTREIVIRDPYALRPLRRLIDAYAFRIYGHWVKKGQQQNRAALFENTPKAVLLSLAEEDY
Sequence of UniProt Q8WTQ7 (whole entry, looked up): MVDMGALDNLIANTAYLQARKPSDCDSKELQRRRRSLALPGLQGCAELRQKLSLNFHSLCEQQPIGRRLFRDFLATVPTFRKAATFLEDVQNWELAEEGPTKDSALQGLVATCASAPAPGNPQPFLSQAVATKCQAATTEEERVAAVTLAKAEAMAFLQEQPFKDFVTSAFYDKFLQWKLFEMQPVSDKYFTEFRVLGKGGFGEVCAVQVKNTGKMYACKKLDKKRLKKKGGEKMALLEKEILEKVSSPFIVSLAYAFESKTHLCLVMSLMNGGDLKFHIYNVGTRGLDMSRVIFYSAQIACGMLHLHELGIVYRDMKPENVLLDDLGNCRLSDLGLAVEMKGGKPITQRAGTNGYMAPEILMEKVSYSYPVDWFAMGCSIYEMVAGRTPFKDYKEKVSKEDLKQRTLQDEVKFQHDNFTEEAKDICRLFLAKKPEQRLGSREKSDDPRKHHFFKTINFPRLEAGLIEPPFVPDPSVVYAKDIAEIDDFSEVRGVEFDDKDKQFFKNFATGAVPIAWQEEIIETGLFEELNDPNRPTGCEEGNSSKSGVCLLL
Sequence of UniProt Q8IY84 (whole entry, looked up): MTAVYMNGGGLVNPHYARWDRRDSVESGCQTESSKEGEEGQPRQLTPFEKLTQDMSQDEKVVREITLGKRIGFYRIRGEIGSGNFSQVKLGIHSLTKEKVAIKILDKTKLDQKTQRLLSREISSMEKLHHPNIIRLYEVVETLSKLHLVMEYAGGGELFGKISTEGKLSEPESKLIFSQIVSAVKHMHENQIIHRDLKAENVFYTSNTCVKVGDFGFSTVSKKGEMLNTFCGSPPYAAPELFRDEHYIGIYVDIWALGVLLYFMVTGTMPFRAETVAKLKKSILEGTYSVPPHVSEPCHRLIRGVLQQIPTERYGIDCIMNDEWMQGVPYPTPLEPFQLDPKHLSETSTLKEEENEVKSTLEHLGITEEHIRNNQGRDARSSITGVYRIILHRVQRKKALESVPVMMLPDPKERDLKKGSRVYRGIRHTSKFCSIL

Set 1
Target: ATP-dependent RNA helicase DDX3X, helicase core (DDX3X, Homo sapiens, UniProt O00571, residues 132-607)
Sequence of UniProt O00571 (132-607, looked up): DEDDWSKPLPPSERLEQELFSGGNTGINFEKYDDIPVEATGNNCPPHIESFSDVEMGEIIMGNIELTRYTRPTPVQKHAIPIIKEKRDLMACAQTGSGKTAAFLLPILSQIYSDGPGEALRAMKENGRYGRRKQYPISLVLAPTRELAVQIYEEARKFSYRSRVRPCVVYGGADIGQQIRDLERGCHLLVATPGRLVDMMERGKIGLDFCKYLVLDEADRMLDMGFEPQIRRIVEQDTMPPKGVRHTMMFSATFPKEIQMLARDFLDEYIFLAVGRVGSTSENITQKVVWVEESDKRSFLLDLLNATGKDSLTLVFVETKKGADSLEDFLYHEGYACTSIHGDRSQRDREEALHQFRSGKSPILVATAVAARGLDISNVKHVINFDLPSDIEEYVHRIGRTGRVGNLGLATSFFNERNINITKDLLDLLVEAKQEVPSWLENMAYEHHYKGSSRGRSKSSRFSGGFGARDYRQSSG
Technique: RNA Bind-n-Seq
Form: RNA
Sample: in vitro
Tested at: 90 pmol
Setting: 4-mer, random 30-nt RNA, single round
Added: 3 µM iPr-DMDA-PatA, 2 mM ADP, 2 mM phosphate
Relative to: input library
Direction: higher = stronger binding
Endpoint: 4-mer enrichment
CGAC: 1.02 fold
GCUG: 0.7 fold
UGUU: 0.964 fold
AACU: 1.12 fold
UCCU: 0.934 fold
AGUG: 1.03 fold
CCCG: 1.03 fold
UAGC: 0.895 fold

Set 2
Target: Insulin receptor-related protein (INSRR, Homo sapiens, UniProt P14616)
Sequence of UniProt P14616 (whole entry, looked up): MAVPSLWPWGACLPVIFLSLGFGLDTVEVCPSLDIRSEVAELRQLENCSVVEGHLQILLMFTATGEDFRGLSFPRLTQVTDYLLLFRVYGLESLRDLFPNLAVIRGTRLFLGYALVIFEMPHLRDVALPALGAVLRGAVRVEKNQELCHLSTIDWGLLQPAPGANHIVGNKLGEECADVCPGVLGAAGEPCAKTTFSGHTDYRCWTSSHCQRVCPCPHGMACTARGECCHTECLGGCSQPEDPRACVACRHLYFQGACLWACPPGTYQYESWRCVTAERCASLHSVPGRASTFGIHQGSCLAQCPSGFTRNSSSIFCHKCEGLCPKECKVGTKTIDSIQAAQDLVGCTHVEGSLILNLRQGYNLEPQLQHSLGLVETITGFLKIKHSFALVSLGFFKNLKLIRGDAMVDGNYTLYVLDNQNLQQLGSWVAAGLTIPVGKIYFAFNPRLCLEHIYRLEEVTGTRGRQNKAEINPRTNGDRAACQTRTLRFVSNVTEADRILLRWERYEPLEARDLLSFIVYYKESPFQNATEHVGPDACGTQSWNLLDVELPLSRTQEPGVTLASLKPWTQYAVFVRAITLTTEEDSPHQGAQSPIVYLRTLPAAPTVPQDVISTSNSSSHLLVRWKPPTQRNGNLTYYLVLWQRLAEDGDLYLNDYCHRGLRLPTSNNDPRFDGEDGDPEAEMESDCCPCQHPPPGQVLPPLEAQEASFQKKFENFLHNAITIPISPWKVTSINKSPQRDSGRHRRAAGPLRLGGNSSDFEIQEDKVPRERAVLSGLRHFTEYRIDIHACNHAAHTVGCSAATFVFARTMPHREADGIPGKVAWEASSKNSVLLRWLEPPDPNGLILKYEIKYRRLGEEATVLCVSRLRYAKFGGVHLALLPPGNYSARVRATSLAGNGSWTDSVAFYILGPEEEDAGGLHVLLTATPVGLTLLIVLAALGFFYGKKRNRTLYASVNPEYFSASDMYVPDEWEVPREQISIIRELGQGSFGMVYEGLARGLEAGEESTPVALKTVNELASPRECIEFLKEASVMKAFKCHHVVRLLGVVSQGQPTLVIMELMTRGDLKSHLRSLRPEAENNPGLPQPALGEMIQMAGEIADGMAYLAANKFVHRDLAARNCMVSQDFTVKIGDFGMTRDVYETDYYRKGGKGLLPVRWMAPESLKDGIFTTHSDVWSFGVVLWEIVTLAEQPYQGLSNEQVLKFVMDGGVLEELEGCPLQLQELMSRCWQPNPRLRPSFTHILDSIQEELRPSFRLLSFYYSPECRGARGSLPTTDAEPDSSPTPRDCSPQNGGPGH
Effect on: enzyme activity
Action: inhibitor
Tested at: 0.5 µM
Relative to: control
Endpoint: remaining activity
COc1cc2ncnc(Nc3ccc(Oc4ccccc4)cc3)c2cc1OC: 102%
O=C(O)c1ccc2c3c1cccc3c(=O)n1c3ccccc3nc21: 101%
Nc1ccc2ncnc(NCCc3ccc(Oc4ccccc4)cc3)c2c1: 98.7%
CCOC(=O)c1c(C)[nH]c(/C=C2\C(=O)Nc3ccccc32)c1C: 93.8%
COc1cc2nccc(Oc3ccc(NC(=S)NC(=O)c4ccccc4C)cc3)c2cc1OC: 98.2%
O=S(=O)(c1cccc2cnccc12)N1CCCNCC1: 99.7%
CN(C)c1ccc(C=C2C(=O)Nc3ccccc32)cc1: 94.5%
O=C(Nc1cccc(Nc2cc(Nc3cccc(C(F)(F)F)c3)ncn2)c1)C1CC1: 101%
COc1ccc(C(=O)Nc2sc3c(c2C(N)=O)CCCC3)cc1OC: 99.7%
O=C1NC(=O)C(c2cn(CCCO)c3ncccc23)=C1c1cnccn1: 93.2%
COc1cc2ncnc(Nc3ccc(F)c(Cl)c3)c2cc1OCCCN1CCOCC1: 112%
C#Cc1cccc(Nc2ncnc3cc(OCCOC)c(OCCOC)cc23)c1: 110%
Cc1ccc(Nc2nccc(N(C)c3ccc4c(C)n(C)nc4c3)n2)cc1S(N)(=O)=O: 96.1%
OCC(O)CCON=C1C(c2c(O)[nH]c3ccccc23)=Nc2ccccc21 (stereo not shown): 2.77%
Cn1sc(=O)n(Cc2ccccc2)c1=O: 99.3%

Set 3
SMILES: NS(=O)(=O)c1cc(NC(=O)C2(c3ccccc3Cl)CC2)ccc1Oc1cccc(Cl)c1
Effect on: cell-free assay
Technique: competition with immobilised ligand
Tested at: 1 µM
Endpoint: remaining binding
Phosphatidylinositol 4,5-bisphosphate 3-kinase catalytic subunit gamma isoform (PIK3CG, Homo sapiens, UniProt P48736): 100%
Proto-oncogene tyrosine-protein kinase receptor Ret (RET, Homo sapiens, UniProt P07949, V804L): 70%
Ephrin type-A receptor 6 (EPHA6, Homo sapiens, UniProt Q9UF33): 54%
Macrophage-stimulating protein receptor (MST1R, Homo sapiens, UniProt Q04912): 99%
Mitogen-activated protein kinase 12 (MAPK12, Homo sapiens, UniProt P53778): 54%
Ribosomal protein S6 kinase alpha-1, C-terminal kinase domain (RPS6KA1, Homo sapiens, UniProt Q15418): 100%
Serine/threonine-protein kinase TAO2 (TAOK2, Homo sapiens, UniProt Q9UL54): 82%
Ribosomal protein S6 kinase beta-1 (RPS6KB1, Homo sapiens, UniProt P23443): 81%
Rhodopsin kinase GRK7 (GRK7, Homo sapiens, UniProt Q8WTQ7): 100%
Phosphorylase b kinase gamma catalytic chain, skeletal muscle/heart isoform (PHKG1, Homo sapiens, UniProt Q16816): 89%
Serine/threonine-protein kinase TBK1 (TBK1, Homo sapiens, UniProt Q9UHD2): 62%
Interleukin-1 receptor-associated kinase 4 (IRAK4, Homo sapiens, UniProt Q9NWZ3): 61%
Mitogen-activated protein kinase kinase kinase kinase 4 (MAP4K4, Homo sapiens, UniProt O95819): 100%
Mitogen-activated protein kinase 7 (MAPK7, Homo sapiens, UniProt Q13164): 92%
Mitogen-activated protein kinase kinase kinase 13 (MAP3K13, Homo sapiens, UniProt O43283): 100%
Testis-specific serine/threonine-protein kinase 3 (TSSK3, Homo sapiens, UniProt Q96PN8): 100%
Protein kinase C eta type (PRKCH, Homo sapiens, UniProt P24723): 100%
Serine/threonine-protein kinase NIM1 (NIM1K, Homo sapiens, UniProt Q8IY84): 86%
Serine/threonine-protein kinase 25 (STK25, Homo sapiens, UniProt O00506): 100%
Phosphatidylinositol 4,5-bisphosphate 3-kinase catalytic subunit alpha isoform (PIK3CA, Homo sapiens, UniProt P42336, C420R): 100%
Calcium/calmodulin-dependent protein kinase kinase 1 (CAMKK1, Homo sapiens, UniProt Q8N5S9): 100%
Hormonally up-regulated neu tumor-associated kinase (HUNK, Homo sapiens, UniProt P57058): 75%

Single results of other studies
Technique: cross-linking MS
Sample: cell fractions
CALD1 (Homo sapiens, UniProt Q05682)
cross-linked residues (DHX29 (Homo sapiens, UniProt Q7Z478); added: DSSO): K781 to K401

ERLIN1 (Homo sapiens, UniProt O75477)
cross-linked residues (ERLIN2 (Homo sapiens, UniProt O94905); added: DSSO): K286 to K275

CCT7 (Homo sapiens, UniProt Q99832)
cross-linked residues (CGN (Homo sapiens, UniProt Q9P2M7); added: DSSO): K320 to K632

TM7SF2 (Homo sapiens, UniProt O76062)
cross-linked residues (SWAP70 (Homo sapiens, UniProt Q9UH65); added: DMTMM): K316 to D86

Some of these lines once more (set 3):
Macrophage-stimulating protein receptor (MST1R, Homo sapiens, UniProt Q04912): 99%
Mitogen-activated protein kinase 12 (MAPK12, Homo sapiens, UniProt P53778): 54%
Ribosomal protein S6 kinase alpha-1, C-terminal kinase domain (RPS6KA1, Homo sapiens, UniProt Q15418): 100%
Serine/threonine-protein kinase TAO2 (TAOK2, Homo sapiens, UniProt Q9UL54): 82%
Ribosomal protein S6 kinase beta-1 (RPS6KB1, Homo sapiens, UniProt P23443): 81%
Rhodopsin kinase GRK7 (GRK7, Homo sapiens, UniProt Q8WTQ7): 100%
